# Published values pooled from the literature.
# Compare with care: the assays were run in different laboratories. ± marks the error that the study gave.
SMILES,organism,test,system,conditions,scale,quantity,result
Cc1cc(C#N)cc(C)c1Oc1nc(NC2CCN(Cc3cccc(F)c3)CC2)nc2ccccc12,HIV-1,,"TZM-bl, NL4-3 wild type",,reference: CC50 over EC50,selectivity index,> 10.3
COc1ccc(S(=O)(=O)Nc2ccc(NS(=O)(=O)c3ccc(OC)cc3)c3ccccc23)cc1,Salmonella typhimurium,mini-Ames test,TA98 and TA100,"100 µM, 90 min, added: S9 liver fraction",reference: vehicle control,revertant increase,> 2 fold
Cc1cc(C#N)cc(C)c1Oc1nc(NC2CCN(Cc3ccc(Br)cc3)CC2)nc2ccccc12,HIV-1,,"TZM-bl, NL4-3 wild type",,reference: CC50 over EC50,selectivity index,> 6.69
COc1ccc(CNc2nc(N3CCC[C@H]3CO)ncc2C(=O)NN)cc1Cl,Salmonella typhimurium,,"TA98, TA100, TA1535, TA102, TA97a","62.5 to 1000 µg/plate, 48 h, with and without S9",reference: solvent control,revertants relative to solvent,≤ 2
N#Cc1ccc(-c2ccc(-c3cccs3)s2)cc1,Salmonella typhimurium,liquid broth OD,TA1535,"100 µM, 15 h",reference: growth,viability,108 ± 7.3%
Cc1cc(C#N)cc(C)c1Oc1nc(NC2CCN(Cc3ccc(F)cc3)CC2)nc2ccccc12,HIV-1,,"TZM-bl, NL4-3 wild type",,reference: CC50 over EC50,selectivity index,> 8.87
C=CCC1=C[C@]2(C[C@@H](O)C(C)(C)O2)C2=C(C[C@H]3C[C@@H]4[C@@H](C[C@@]3(C)O2)C(=C)CCCC4(C)C)C1=O,coxsackievirus B3,cytopathic effect,"Vero, Nancy",,reference: CC50 over IC50,selectivity index,2.1
N#Cc1ccc(-c2ccc(-c3cccs3)o2)cc1,Salmonella typhimurium,liquid broth OD,TA1535,"100 µM, 15 h",reference: growth,viability,99.1 ± 8.7%
Cc1cc(C#N)cc(C)c1Oc1nc(NC2CCN(Cc3ccccc3C#N)CC2)nc2ccccc12,HIV-1,,"TZM-bl, NL4-3 wild type",,reference: CC50 over EC50,selectivity index,> 9.21
N=C(N)c1ccc(-c2ccc(-c3cccs3)s2)cc1,Salmonella typhimurium,liquid broth OD,TA1535,"12.5 µM, 15 h",reference: growth,viability,92.1 ± 2.3%
Cc1cc(/C=C/C#N)cc(C)c1Oc1nc(NC2CCN(Cc3ccc(C(N)=O)cc3)CC2)nc2ncccc12,HIV-1,,"TZM-bl, NL4-3 wild type",,reference: CC50 over EC50,selectivity index,< 812
N=C(N)c1ccc(-c2ccc(-c3ccco3)o2)cc1,Salmonella typhimurium,liquid broth OD,TA1535,"25 µM, 15 h",reference: growth,viability,59.4 ± 3.7%
CN(C)C(CNC(=O)Nc1cc(C(F)(F)F)ccc1N1CCOCC1)c1ccncc1 (stereo not drawn),Salmonella typhimurium and Escherichia coli,Mini-Ames,"TA98, TA100, TA1535, TA1537, WP2 uvrA pKM101",concentration not given,,mutagenicity,negative
C=CCC1=C[C@@]2(C[C@@H](O)C(C)(C)O2)C2=C(C[C@H]3C[C@H]4C(=C)CCCC(C)(C)[C@@H]4C[C@@]3(C)O2)C1=O,coxsackievirus B3,cytopathic effect,"Vero, Nancy",,reference: CC50 over IC50,selectivity index,1.7
N#Cc1ccc(-c2ccc(-c3ccco3)o2)cc1,Salmonella typhimurium,liquid broth OD,TA1535,"100 µM, 15 h",reference: growth,viability,113 ± 11.4%

# A few entries again:
SMILES,organism,test,system,conditions,scale,quantity,result
N=C(N)c1ccc(-c2ccc(-c3ccco3)o2)cc1,Salmonella typhimurium,liquid broth OD,TA1535,"25 µM, 15 h",reference: growth,viability,59.4 ± 3.7%
